# Measurements pooled from the literature.
# A part holds a random share of what one study measured. Substitutions count along the parent as printed.

# Sample 1 — target: CCND2, cyclin fold, Cln2 fusion (human); method: yeast growth competition, sequencing; medium: yeast; notes: weak parent motif; reference: not given; direction: higher = stronger binding
# Starting sequence: PKMYT1 docking peptide (human); SFEPRNLLSLFED; partner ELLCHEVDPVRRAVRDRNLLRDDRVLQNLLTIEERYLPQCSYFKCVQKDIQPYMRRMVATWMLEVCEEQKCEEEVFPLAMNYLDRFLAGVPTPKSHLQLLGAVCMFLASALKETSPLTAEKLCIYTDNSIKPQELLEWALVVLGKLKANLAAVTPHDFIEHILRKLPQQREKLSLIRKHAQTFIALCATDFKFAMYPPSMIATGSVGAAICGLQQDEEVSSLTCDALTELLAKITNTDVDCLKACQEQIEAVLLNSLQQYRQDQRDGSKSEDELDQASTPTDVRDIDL
Change,normalised enrichment score
D13W,-0.149
N6M,-0.235
L7V,-0.132
P4M,0.566
S9Q,-0.114

# Sample 2 — method: aptamer microarray, sandwich; molecule type: DNA with 2'F-ANA; medium: in vitro; concentration: 200 nM; with: Cy3 exosite-II aptamer, 400 nM; direction: higher = stronger binding; strand: GGTTGGTGTGGTTGG
# Target: Prothrombin, mature alpha-thrombin (F2, Homo sapiens, UniProt P00734)
# Notes: whole 15-mer aptamer, many near background
Modification,mean fluorescence intensity
2'F-ANA at 2 5 6 7 8 9 14 15,46.5 a.u.
2'F-ANA at 3 4 5 9 11 12 13 14 15,55.3 a.u.
2'F-ANA at 1 6 7 8 10 14,80.2 a.u.
2'F-ANA at 3 4 6,629 a.u.
2'F-ANA at 2 10 12 13 14 15,124 a.u.

# Sample 3 — method: protein binding microarray; molecule type: double-stranded DNA, one strand shown; medium: in vitro; concentration: not given; reference: not given; direction: higher = stronger binding
# Target: Histone acetyltransferase KAT6A, winged helix 1, GST fusion (KAT6A, Homo sapiens, UniProt Q92794, residues 1-85)
# Notes: 8-mer, flanks averaged, mean of 2 arrays, mostly near background
# Target sequence (chain): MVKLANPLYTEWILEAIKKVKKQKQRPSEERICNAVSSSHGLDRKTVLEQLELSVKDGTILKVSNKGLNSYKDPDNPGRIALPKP
Strand,E-score
AAGAATCA,-0.219
TACTTATA,-0.0568
AATGGATG,-0.229
AAATCTCT,-0.0643
CTAACAGA,-0.14
AATTGCCT,-0.172
GAGCAGAA,-0.0443
CAAAATAG,-0.277

# Mixed results
Molecule,target,test,test system,conditions,scale,measurement,value
"PhoQ, residues 284 288 289 292 302 303 SLCLSL","PhoP, residues 12 14 15 18 19 LHSVW (Escherichia coli, UniProt P23836)","Sort-seq, refers to: YFP reporter",E. coli,"PhoQ-PhoP variant library, with: 10 µM Mg2+","reference: high Mg2+ state, higher = stronger signaling",fold induction,1.57
